Measured values gathered from unrelated publications.
Every numbered part comes from another study and shows a few of its results, in no order.

Block 1
Target: RNA binding protein fox-1 homolog 2, RRM domain, GST-SBP tag (RBFOX2, Homo sapiens, UniProt O43251-10, residues 100-194)
Technique: RNA Bind-n-Seq
Form: RNA
Medium: in vitro
Concentration: 365 nM
Setting: natural RNA segment, single round, ends assumed
Baseline: no-protein control
Direction: higher = stronger binding
Constant ends, left off below: GGGAGUUCUACAGUCCGACGAUC … UGGAAUUCUCGGGUGCCAA
Residues (chain): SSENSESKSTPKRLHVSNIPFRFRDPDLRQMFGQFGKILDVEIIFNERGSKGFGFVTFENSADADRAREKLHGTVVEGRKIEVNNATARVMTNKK
Oligonucleotide	RBNS enrichment (R)
UUUCACCCCUUGUCCUUUUCCACCCUUUUAAGAGUUACGCUAGCAGAUCUUACUCCACGUAUACUUUUUGGUUUGUGAAGGCAUCGGUUAAGGGCACAAAGACAGCCAUG	1.26
AACUUUGCUUUCAGUUUCUUGGUAAGCAACAGCUGUCUGGCAAUGCUCAAGGAAUCCACAUCUGGUGGGUAGGAGAAGAGAGACCCUGUUGCUAUAGUACAGAGACAAGU	0.669
CAGCAUCCUGUGUGAGAACACAUUUUGAAAGCCCAAUGACAUCAACUGGGUAAAGGAAACACUAACCUGUUUCCAGUCUCCAGACAAAGGUUUAAAGCUUUUCAAGAACU	0.374
CCCAAGUUGUGUUAAUACUUCAGGUCUGUUUCCCAGACCCAGAAAGCUUUACAGAAAAUCAUUGUAAGACAAUUUAUUAAUUUGAGAAAGUCACCUUGACAGUUCUUUGC	0.84
UAGAUGGCAGCCCUGGGCUGUCUCUGCUAUGGGGUGACCUUUCUACCUCCACACAAGACCCUGUUGACUCAGGAGGAUCUCCGCAAUGGUUGAUUAAUAGCUGAAGCAAA	0.216
GAUUUCUCUGCAUAAUUUCUCAAUAUCUUUAGCACAGUAUGGUGAUGAUGACUUUUAAGCAUUUACAUCACGUACUCAUAACCUAUUAUGAAAAUAAAUGAAACUGGCUG	0.673
GAAGGCUGUCAAACUCAAAUAUCUUUGCAAACAGUUUGAAUACUGUGAAUUCAUUACGAAGAAUGUUCGAGAGAAAGCAGGGGUCUAAUCCAAAAGAAAUGUCAUUAACC	0.498
CCUUGGGGGCCUGUCACUUGCCAAAGUAACAUUCCUCUCUUGGGCCAAAAUGAAUGCUGACUCCUGAUACUCCGCACAAGCACACCAACUCCAAAAGUGCCUUAAAGCCA	0.234
GACACAGUGCACACUUAGACAUGGCUCAGCACCGCGGGUGGUAGUAGUUCAAGGAGAAACCUGUCCAAGUUGAUGCCAAAGAUUUACUGCCAACCUUUUCCCCCCAAGGG	0.541
UGGCCUACGGUGAUGCCUGUGGUGAUGCCAGGUUGUCCGCUCACAUGAGUCCCAUCUGUAAAUUCUUUGCUCCCUUCUCCGAUGCUGCCACCCAAGGCCUUCUCCUGCCU	0.787
UUCAUAUUACAAAACAGUUUUACACUUAAUAUGUUAACAUUGGGUGCAAUAAUUUAGUAGCAUUAGCUUUAGUUACAAAUAUAACUGGAUCUUUCUGCUGACAACUUAGG	0.31
UAGCGACACACUCCUCAUCCAGGCUUCCCAAGAUACACUAGCUCUGGGACACCCCAGGCAUGCUCUCAAACUAGUCAUGGGGCCUUCUGAGGACAGUUCCAUCCUACCUU	1.4

Block 2
Target: Sal-like protein 4, full length isoform A (SALL4, Homo sapiens, UniProt Q9UJQ4, residues 1-1053)
Chain of UniProt Q9UJQ4 (whole entry, looked up): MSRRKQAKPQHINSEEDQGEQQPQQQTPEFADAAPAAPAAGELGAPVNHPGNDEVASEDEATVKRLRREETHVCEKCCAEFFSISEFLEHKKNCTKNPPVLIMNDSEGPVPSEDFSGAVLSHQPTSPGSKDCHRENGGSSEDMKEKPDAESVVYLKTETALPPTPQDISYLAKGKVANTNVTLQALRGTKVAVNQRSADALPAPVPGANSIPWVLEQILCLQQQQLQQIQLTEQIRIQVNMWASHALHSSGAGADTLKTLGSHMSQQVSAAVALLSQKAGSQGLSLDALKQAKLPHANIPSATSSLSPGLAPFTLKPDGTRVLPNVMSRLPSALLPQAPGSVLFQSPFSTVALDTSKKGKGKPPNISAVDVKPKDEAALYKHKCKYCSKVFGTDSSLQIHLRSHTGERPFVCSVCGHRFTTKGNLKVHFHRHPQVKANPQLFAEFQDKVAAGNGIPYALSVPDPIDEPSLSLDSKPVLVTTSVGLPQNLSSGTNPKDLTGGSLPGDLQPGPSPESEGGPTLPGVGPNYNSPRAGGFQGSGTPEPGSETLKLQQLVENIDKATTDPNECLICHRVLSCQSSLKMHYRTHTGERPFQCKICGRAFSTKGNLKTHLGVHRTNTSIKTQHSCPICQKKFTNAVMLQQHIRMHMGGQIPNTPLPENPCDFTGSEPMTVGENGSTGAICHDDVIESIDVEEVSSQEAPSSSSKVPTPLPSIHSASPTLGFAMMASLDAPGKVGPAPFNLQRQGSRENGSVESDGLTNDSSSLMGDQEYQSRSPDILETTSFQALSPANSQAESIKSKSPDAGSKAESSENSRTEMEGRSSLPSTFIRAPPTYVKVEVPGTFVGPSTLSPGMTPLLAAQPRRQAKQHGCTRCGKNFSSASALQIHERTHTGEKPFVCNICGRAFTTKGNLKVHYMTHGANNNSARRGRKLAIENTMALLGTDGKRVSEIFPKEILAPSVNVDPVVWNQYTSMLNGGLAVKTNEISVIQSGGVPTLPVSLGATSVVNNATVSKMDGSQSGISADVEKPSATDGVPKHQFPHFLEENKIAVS
Technique: universal PBM
Form: double-stranded DNA, one strand shown
Medium: in vitro
Concentration: 600 nM
Setting: 8-mer, flanks averaged, mean of replicates
Direction: higher = stronger binding
Oligonucleotide	E-score
CCCTCAAC	-0.233
AGCCCCCG	-0.423
ATCGTGTG	0.138
CGTCCACA	-0.149
TCGGCAGA	-0.162
CCTATGGC	-0.0583
CATGATTA	0.353
AATAAGCT	0.254
AGAACCTA	0.00136
CTTGTCAC	-0.0445
CTTTGGCC	-0.0766
ACTAGCTG	-0.0946
CGGACTAG	-0.18
GAAGAGGA	-0.163
CAATTACC	0.093
ACCTAGTC	-0.0848
TCCCCAAA	0.15
GGTCTACA	-0.00513
ATCTCAGC	-0.044
CCCCTGAA	-0.0947
CACGTTCA	0.0406
AGTAAACT	0.26
CACGAGAC	-0.205
CGGACGTA	-0.116

Block 3
Target: Histone acetyltransferase KAT6A, winged helix 2, GST fusion (KAT6A, Homo sapiens, UniProt Q92794, residues 85-181)
Technique: protein binding microarray
Form: double-stranded DNA, one strand shown
Medium: in vitro
Concentration: not given
Setting: 8-mer, flanks averaged, mean of 2 arrays, mostly near background
Baseline: not given
Direction: higher = stronger binding
Residues (chain): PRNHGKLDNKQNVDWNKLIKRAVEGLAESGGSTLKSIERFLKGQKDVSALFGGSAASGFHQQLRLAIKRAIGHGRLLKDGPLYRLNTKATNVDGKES
Oligonucleotide	E-score
ATCCAAAT	-0.159
GCTCACAC	-0.0543
ATTCACAC	-0.00749
CACTAAAA	0.0501
GCACCAGC	0.084
GAATATAC	-0.266
CCCACGTC	0.184
CTATCAAG	-0.0453
AAGCTCTA	-0.0322
GGAGAGCC	-0.0286
GTGCGTCA	0.1
GCTGAAGC	0.108
AAGTTTAC	0.0856
CCCAAGGG	-0.0348
CGTACTTA	-0.0671
TTATCGAA	0.0395
ACGATCCA	0.0514
ACCGGGCT	0.00685
ATACCGAT	-0.0829
AGCAGGAC	0.0962
CATTTCAC	-0.106
CTGTGCAA	0.0849
AGGGGAAC	0.0543
GACTCATC	-0.249
CACATAGA	-0.0536

Block 4
Target: Hepatocyte nuclear factor 3-alpha (Foxa1, Mus musculus, UniProt P35582, residues 1-468, full length assumed)
Chain of UniProt P35582 (whole entry, looked up): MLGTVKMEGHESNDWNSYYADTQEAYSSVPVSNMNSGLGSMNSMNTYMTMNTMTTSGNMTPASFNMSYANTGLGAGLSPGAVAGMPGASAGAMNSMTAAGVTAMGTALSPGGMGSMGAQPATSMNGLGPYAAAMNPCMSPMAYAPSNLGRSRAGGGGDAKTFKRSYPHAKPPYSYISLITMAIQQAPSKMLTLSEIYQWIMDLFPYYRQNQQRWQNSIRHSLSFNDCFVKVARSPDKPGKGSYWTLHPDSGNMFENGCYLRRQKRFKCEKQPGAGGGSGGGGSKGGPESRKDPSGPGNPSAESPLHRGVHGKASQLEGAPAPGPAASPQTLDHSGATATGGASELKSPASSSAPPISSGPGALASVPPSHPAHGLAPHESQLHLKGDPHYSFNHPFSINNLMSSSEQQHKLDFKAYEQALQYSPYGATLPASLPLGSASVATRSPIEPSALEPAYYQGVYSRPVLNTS
Technique: EMSA with sequencing
Form: double-stranded DNA, one strand shown
Medium: in vitro
Concentration: 10 and 20 nM
Setting: whole designed probe, mean of two concentrations, ends assumed
Baseline: negative control set to 0
Direction: higher = stronger binding
Constant ends, left off below: GTGAGCGGTGCCCATTGATGGGGAAC … TTTCACTGGGATCGTGGGGAC
Oligonucleotide	normalised bound fraction
ATGACTGACATAGATACATCTCTCAGAGTGAATAGGAAATCATTAACAACTATTTCATGAGTGAAGTTTCAATATATTTTTTAAAATTCAGAGTAAACATCAAGATGGACTTTATTTTACCTAACACAACAATTCGGTCACCCTGTCATCCTAAAAATCTCTATAAGTAAAACTGATTGTAAGGATATGTTAA	0.176 ratio
TTTAACAACCTATAAACAGGGCCTCGGTATTGAATTCTTTGTCTTATTTAAGTCAAAAGGAACCAGATTACTTTTTTTATGGTTTTAACAAAGTAATCTGGAGCTGGAAAATATCCAAAACTGTTCAAATCAATGTTGTTTTTTACCAGGCTAGGGCTGTTAATAAATATACCATAAATGAGCTCAGACTTTT	-0.0124 ratio
ATCTTCCCCCTCTTCCTTGCCCCACCAGCTCACCTTCCCGGGTTATTTGCAGATAGGAAAATAAATAAAGCCGGCATTCGTTAACCCTCTTCTGGCGCAAACTGCTGTGCGTCAGTTTTGAATCATGGTCCTTTGGCGACGCCAGGCTCCGGGAGAGCAAAGCACCGTGTCAGGGCCATGATCCGGGGTGGCC	0.324 ratio
CTAGCTCCAGTCTTAGCATGGCAACTTCTTCCTGCAACGTACTATTTTCATGCAAGAAGTCTTTTTCTTTCTTATAACTAAGAGAAAGCTAAGTAATCTAAGGGAACTTTTAGTTAGCACTCAATAGATTGACATATCATGATTTCTTCTGAAATTAAAAAATAACGTGTATTTGTATAATGAAAGAATCCAC	0.127 ratio
ATCTTCCCCCTCTTCCTTGCCCCACCAGCTCACCTTCCCGGGTTATTTGCACAAAGGAAAATAAATAAAGCCGGCATTCGTTAACCCTCTTCACGCGCATACTGCTGTTTGCTCTGCATCTAACATGGTCCTTACGCGACGCCAGGCTCCGGGAGAGCAAAGCACCGTGTCAGGCGCATGATCCGGGCTCGCC	0.385 ratio
GACACCCTGCCTTCTTTTCTTTCCAAAAGACTTTCTTTTCCATGTAGACCGTAGATGTTTTCTGACTGAGTCAACTTTATATCCACAAGGTCTGTTGACATTTAACATGCCAAAGATCCATACAGTGGAGCAGCCAGATGTTTAGGGCCTGGTCCTGGCTTATTGCCATGAGCATTGCTCAGATTCCCAGTCT	0.175 ratio
GCAAAACTCCTACTGTTGATGGCTGAATCCTATCAGGAAATTTTGATTTTACTGAGACAAAGTGCCTGCTACAAAGGACTCAGAAGTCTACTAAGTAAACAGGAAACTGGGACAGAATTCAGTCAAGAACTTAGACAGCTCATTGGCCTTTTAAGCCCAACGGTCTATCAGGAAGTAGAAAAGCAGAAACTAC	0.443 ratio
AGATTAAGTGTTACACTTCTTGCTTTGTTAGATAAATTGAACCACAGCAAATTTTACAAACATAATTTGTCCATATTTTCATAATAAACTCTATGTAAACATCAGTTTTCTTGTTCCTTTAAAAACAAAATAATTCATATCAAACTGTCTTGAATAAGAAAGGCAAACCAGTCACAAGTCCACAATATTAAAG	0.391 ratio

Block 5
Target: Interferon regulatory factor 5, full length, phosphomimetic (IRF5, Homo sapiens, UniProt Q13568-2, residues 1-514, S451D/S453D/S456D/S462D)
Technique: protein-binding microarray
Form: double-stranded DNA, one strand shown
Medium: in vitro
Concentration: 940 nM top
Setting: 60-bp whole probe
With: salmon DNA 0.4 mg/ml
Baseline: random background probes
Direction: higher = stronger binding
Constant ends, left off below: GCCTAGCAC … GTCTTGATTCGCTTGACGCTGCTG
Oligonucleotide	fitted relative affinity [z-score]
GCCGATATCAGTCTCGAGACGTGCTAG	1.42
GATTATAAAATGTGTGTTTGGTGCTAG	0.401
TTAAGTATCCTTCTCCTTTAGTGCTAG	0.776
GACGAACTGAGTTTAGAGACGTGCTAG	-0.24
TTCGGACTGGGTCTCGGTTAGTGCTAG	1.35
TCATAACTTATTCTCTAACTGTGCTAG	1.05
TCAAGTCCCCTCTTCTGACTGTGCTAG	-0.129
TCATTCTTGGGACTCACACTGTGCTAG	0.545
TTAGAGTTCAGTATCGATTAGTGCTAG	5.35
GACGATCACAGTCTCGAGACGTGCTAG	0.557
TTAGGTCTCTGTATCGGTTAGTGCTAG	2.5
TCAGATGTGTATATGACACTGTGCTAG	-0.365
AGACAGTTGAGTTCTGTTGCAGTGCTA	-0.333
GACGGTATCGGGTATCCGGACGTGCTA	5.68
GTAGGTTTCGGTATCGGTTAGTGCTAG	15.6
GACGGTATCCTTTACCTGACGTGCTAG	0.0343
GACGAACTGGAGACTGGAGACGTGCTA	-0.237
CTGTTCTGCAGACTTCTGTCGTGCTAG	-0.156
TTGGGTCTCCTTTTCCTTTAGTGCTAG	0.736
TTAGAACTGACACTGGATTAGTGCTAG	-0.468
GACGAACTGCGTTTCGAGACGTGCTAG	0.107
TCATATTCATATATATAACTGTGCTAG	0.451

For quick reference, copied from above (block 3):
Oligonucleotide	E-score
GGAGAGCC	-0.0286
GTGCGTCA	0.1
GCTGAAGC	0.108
AAGTTTAC	0.0856
CCCAAGGG	-0.0348
CGTACTTA	-0.0671
TTATCGAA	0.0395
ACGATCCA	0.0514
ACCGGGCT	0.00685
